Assay results from different studies.
Each line is one published result; not all experiments were run side by side.
HDAC6: Protein deacetylase HDAC6 (HDAC6, Homo sapiens, UniProt Q9UBN7)
UniProt Q9UBN7, sequence (whole entry, looked up): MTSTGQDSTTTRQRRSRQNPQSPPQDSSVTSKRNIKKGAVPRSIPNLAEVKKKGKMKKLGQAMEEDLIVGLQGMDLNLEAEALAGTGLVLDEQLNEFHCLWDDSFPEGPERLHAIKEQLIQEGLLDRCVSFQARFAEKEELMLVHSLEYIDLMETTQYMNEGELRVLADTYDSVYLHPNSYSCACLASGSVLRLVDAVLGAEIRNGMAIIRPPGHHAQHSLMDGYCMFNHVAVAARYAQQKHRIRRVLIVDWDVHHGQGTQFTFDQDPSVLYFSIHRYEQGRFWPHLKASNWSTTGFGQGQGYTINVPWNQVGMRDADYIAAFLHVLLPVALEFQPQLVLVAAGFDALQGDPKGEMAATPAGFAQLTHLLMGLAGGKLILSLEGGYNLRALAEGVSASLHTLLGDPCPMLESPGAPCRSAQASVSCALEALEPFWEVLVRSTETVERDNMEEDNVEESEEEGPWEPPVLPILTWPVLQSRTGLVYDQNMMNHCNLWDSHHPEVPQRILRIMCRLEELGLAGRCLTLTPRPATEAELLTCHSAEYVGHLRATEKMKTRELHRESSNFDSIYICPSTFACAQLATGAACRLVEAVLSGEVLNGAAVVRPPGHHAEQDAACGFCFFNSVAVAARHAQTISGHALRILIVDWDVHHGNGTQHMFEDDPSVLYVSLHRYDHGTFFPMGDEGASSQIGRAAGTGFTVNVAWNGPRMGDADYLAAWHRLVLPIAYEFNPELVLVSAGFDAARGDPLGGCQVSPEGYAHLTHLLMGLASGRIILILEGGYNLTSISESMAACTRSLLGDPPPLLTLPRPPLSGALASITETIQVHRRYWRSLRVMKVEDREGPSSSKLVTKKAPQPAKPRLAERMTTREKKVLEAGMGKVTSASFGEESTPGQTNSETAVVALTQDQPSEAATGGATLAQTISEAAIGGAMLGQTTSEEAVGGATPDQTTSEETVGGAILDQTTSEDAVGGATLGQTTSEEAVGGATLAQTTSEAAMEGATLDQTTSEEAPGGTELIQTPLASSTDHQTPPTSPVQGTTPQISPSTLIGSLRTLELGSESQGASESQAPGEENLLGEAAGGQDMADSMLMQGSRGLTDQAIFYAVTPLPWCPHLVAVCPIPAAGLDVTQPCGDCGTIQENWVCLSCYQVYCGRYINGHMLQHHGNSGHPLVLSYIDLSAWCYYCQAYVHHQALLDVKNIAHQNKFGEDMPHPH
UniProt O96017, sequence (whole entry, unmodified, looked up): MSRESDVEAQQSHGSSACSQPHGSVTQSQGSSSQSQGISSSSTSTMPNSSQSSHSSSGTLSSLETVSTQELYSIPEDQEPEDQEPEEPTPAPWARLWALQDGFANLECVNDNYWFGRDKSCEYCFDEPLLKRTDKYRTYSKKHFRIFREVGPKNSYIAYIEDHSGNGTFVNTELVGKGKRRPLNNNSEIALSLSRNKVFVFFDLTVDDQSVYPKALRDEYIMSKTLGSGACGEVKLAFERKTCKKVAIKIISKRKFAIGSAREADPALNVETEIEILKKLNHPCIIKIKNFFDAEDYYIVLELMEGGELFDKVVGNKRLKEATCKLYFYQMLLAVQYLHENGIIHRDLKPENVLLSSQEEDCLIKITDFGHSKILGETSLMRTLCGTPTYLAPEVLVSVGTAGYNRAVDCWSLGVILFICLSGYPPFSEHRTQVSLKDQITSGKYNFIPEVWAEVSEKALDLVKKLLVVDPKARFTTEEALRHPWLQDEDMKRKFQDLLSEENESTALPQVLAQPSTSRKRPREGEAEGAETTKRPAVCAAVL
UniProt O14920, sequence (whole entry, looked up): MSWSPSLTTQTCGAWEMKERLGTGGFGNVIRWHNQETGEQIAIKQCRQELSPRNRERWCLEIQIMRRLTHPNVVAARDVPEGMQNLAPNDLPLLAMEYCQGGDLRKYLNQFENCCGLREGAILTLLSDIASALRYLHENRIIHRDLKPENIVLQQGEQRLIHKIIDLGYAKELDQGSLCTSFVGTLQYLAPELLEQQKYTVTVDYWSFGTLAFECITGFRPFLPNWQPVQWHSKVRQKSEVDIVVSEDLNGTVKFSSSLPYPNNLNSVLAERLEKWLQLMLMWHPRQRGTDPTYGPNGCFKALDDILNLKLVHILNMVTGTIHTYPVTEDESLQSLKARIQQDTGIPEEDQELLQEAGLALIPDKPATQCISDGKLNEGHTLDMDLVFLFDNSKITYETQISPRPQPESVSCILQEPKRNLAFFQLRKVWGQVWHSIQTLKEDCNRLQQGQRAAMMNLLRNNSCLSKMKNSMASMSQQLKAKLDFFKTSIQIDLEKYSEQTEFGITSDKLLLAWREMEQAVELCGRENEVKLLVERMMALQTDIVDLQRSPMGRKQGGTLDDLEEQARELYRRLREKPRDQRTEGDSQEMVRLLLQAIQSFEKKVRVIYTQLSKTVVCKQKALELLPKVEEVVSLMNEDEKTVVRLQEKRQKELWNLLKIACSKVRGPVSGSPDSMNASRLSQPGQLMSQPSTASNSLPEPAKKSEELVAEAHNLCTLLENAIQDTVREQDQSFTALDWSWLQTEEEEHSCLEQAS
UniProt P35462, sequence (whole entry, looked up): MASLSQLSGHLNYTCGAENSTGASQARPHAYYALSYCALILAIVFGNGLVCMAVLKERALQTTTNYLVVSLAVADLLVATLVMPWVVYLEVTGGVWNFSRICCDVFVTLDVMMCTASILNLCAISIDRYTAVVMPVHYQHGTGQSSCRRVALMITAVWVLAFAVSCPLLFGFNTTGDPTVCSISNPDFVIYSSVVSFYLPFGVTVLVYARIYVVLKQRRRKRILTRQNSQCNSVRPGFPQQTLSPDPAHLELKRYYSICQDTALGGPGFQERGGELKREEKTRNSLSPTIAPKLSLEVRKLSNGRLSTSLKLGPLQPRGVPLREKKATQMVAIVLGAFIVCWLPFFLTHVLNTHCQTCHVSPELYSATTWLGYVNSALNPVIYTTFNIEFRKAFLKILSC
UniProt P18089, sequence (whole entry, looked up): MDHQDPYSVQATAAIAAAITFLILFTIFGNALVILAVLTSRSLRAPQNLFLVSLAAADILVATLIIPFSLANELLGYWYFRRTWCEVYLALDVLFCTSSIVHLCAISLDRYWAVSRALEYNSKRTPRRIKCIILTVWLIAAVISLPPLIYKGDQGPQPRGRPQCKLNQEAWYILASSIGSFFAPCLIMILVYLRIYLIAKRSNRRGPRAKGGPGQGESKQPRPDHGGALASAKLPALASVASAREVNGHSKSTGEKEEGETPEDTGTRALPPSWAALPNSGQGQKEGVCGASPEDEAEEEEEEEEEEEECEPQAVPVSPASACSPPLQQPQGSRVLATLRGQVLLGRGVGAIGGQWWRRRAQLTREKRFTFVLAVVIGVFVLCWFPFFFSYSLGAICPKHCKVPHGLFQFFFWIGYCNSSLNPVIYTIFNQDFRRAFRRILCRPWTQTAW

Compound | tested on | test | system | setting | quantity | result
COc1ccc2c(c1)CN(C(=O)CCN1CCC(Cc3ccccc3)CC1)CC[S@@+]2[O-] | – | – | male human, plasma | intravenous, 0.05 mg/kg, healthy volunteers | Vd | 71.4 L
CCn1ccc2c([C@@](O)(CC)c3ccc(C(F)(F)F)nc3)n(C)nc2c1=O | – | metabolic stability | human, hepatocytes | 0.5 µM, pH 7.4 | hepatocyte CLint | 2 µL/min/10⁶ cells
C[C@H](C(=O)NCc1ccccc1)N1C(=O)CCC1=O | – | rotarod | male C57BL/6 mouse | intraperitoneal | TD50 | 168 mg/kg
CCn1cc(C)c2c([C@H](O)c3ccc(C(F)(F)F)nc3)n(C)nc2c1=O | – | metabolic stability | male Sprague-Dawley rat, hepatocytes | 0.5 µM, pH 7.4 | hepatocyte CLint | 3.7 µL/min/10⁶ cells
O=C1O[C@H]([C@@H](O)CO)C(O)=C1O | – | ABTS scavenging | – | 10 µg/mL | inhibition | 11.9%
O=C(c1ccc(F)cc1)C1CCN(CCn2c(=O)[nH]c3ccccc3c2=O)CC1 | – | metabolic stability | dog, liver microsomes | 15 min | compound remaining | 81.5%
O=C(NO)c1cccc(OS(=O)(=O)Oc2ccc(C(F)(F)F)cc2)c1 | HDAC6 | enzyme activity, inhibitor, fluorescence | – | – | Ki | 0.374 µM
COc1ccc([C@@H](O)c2cc(-c3ncnc4cc(N5CCOCC5)ccc34)c(F)cc2Cl)nn1 | – | – | human, plasma | oral, 200 mg, multiple doses, twice daily, patients | Cmax | 2370 ng/mL
Cc1cc(Oc2ncccc2CN2CCN(c3ccc(C(F)(F)F)cn3)CC2)ccc1-c1c(C)c(=O)[nH]c(=O)n1C | Alpha-2B adrenergic receptor (ADRA2B, Homo sapiens, UniProt P18089) | ligand displacement, radioligand | – | – | Ki | 3.07 µM
O=C(NCc1nc(-c2ccccc2)cs1)[C@H]1CCCN(C(=O)COCCF)C1 | – | metabolic stability | male Sprague-Dawley rat, liver microsomes | 0.5 µM | microsomal CLint | 66 µL/min/mg
Cn1nc2c(=O)n(C3CC3)ncc2c1[C@](N)(c1ccc(C(F)(F)F)c(Cl)c1)C1CC1 | – | metabolic stability | male Sprague-Dawley rat, hepatocytes | 0.5 µM, pH 7.4 | hepatocyte CLint | 0.6 µL/min/10⁶ cells
CC(=O)N(C)[C@H]1CCN(C(=O)c2cnc3c(c2)C[C@](C)(c2ccc(F)cc2)N3)C1 | – | – | male human, plasma | oral, 60 mg, multiple doses, once daily, steady state | Cmax | 1630 nM
O=C1c2ccncc2C(=O)c2c1[nH]c1ccccc21 | – | – | rat, plasma | intravenous, 5 mg/kg, single dose | MRT | 27.5 h
O=C(Nc1ccc(CN2CCOCC2)c(C(F)(F)F)c1)c1ccc(C#Cc2cccc3cnccc23)cn1 | – | metabolic stability | mouse, liver microsomes | 20 min | compound remaining | 22.3%
CCCCCCOc1ccc2c(=O)c3c([nH]c2c1)CCCC3 | – | metabolic stability | mouse, liver microsomes | 1 µM, pH 7.4 | microsomal CLint | 117 µL/min/mg
CC[C@@](N)(c1cnc(C(F)(F)F)c(Cl)c1)c1c2ccn(C3CC3)c(=O)c2nn1C | – | metabolic stability | male Sprague-Dawley rat, hepatocytes | 0.5 µM, pH 7.4 | hepatocyte CLint | 0.8 µL/min/10⁶ cells
Cc1cccnc1CNc1nc(-c2ccccn2)nc2ccccc12 | – | metabolic stability | mouse, liver microsomes | – | microsomal CLint | 97 µL/min/mg
N#Cc1cccc(-c2ccc3ncc(-c4cc(F)cc(F)c4)c(N4CCC(N)CC4)c3c2)c1O | – | – | male human, plasma | oral, 20 mg, single dose | Vd/F | 310 L
Cn1nc2c(=O)n(C3CC3)ccc2c1[C@](O)(c1ccc(C(F)(F)F)nc1)C1CC1 | – | metabolic stability | human, hepatocytes | 0.5 µM, pH 7.4 | hepatocyte CLint | 1.3 µL/min/10⁶ cells
COc1nc(-c2cc(C)c(N[C@@H](C)c3cc(F)cc(F)c3)nn2)ccc1-n1cnc(C)c1 | – | – | male Sprague-Dawley rat, plasma | oral, 5 mg/kg, single dose | bioavailability | 79.4%
Cc1noc(NS(=O)(=O)c2ccc(N=NN(O)c3ccccc3)cc2)c1C | – | ABTS scavenging | – | 120 µg/mL | inhibition | 57.4%
CC(C)Oc1c(NC(=O)c2ccc(NC(=O)[C@H](CC(N)=O)NC(=O)c3ccc(NC(=O)c4ccc(C#N)cc4)cc3)cc2)ccc(C(=O)Nc2ccc(C(=O)O)cc2)c1O | – | – | male CD-1 mouse, plasma | intravenous, 5 mg/kg, single dose | MRT | 1.08 h
c1ccc(-c2nc(NCc3ccco3)c3ccccc3n2)nc1 | – | metabolic stability | mouse, liver microsomes | – | microsomal CLint | 232 µL/min/mg
N=C(N)c1cccc(OCc2ccccc2COc2cccc(C(=N)N)c2)c1 | – | haemolysis | sheep | 200 µg/mL, 1 h | haemolysis | 0.1%
CCCCNC(=O)NS(=O)(=O)c1ccc(C)cc1 | – | metabolic stability | Sprague-Dawley rat, hepatocytes | 0.5 µM, pH 7.4 | hepatocyte CLint | 3.3 µL/min/10⁶ cells
CCN1CCN(Cc2ccc(NC(=O)c3ccc(C)c(NC(=O)c4cncc(-c5cccs5)c4)c3)cc2C(F)(F)F)CC1 | – | – | mouse, plasma | intraperitoneal, 10 mg/kg, single dose | CL/F | 138 mL/min/kg
CCOC(=O)[C@@]12C[C@@H]1[C@@H](n1ccc3c(NC)nc(C#Cc4ccc(Cl)s4)nc31)[C@H](O)[C@@H]2O | – | – | male Sprague-Dawley rat, plasma | oral, 3 mg/kg, 15 min | concentration | 28.5 ng/mL

Compound | tested on | test | system | setting | quantity | result
O=c1c2c([nH]c3cccc(Oc4ccc(OC(F)(F)F)cc4)c13)CCCC2 | – | metabolic stability | mouse, liver microsomes | 1 µM, pH 7.4 | microsomal CLint | 117 µL/min/mg
NCc1cc2c(cc1F)C(=O)N(C1CCC(=O)NC1=O)C2 (stereo not drawn) | – | – | male cynomolgus monkey, plasma | oral, 0.3 mg/kg, 15 min | concentration | 0.45 ng/mL
COCC(=O)N1CCC[C@H](C(=O)NCc2nc(-c3ccc(-c4ccccc4)cc3)cs2)C1 | – | metabolic stability | human, liver microsomes | 0.5 µM | microsomal CLint | 62 µL/min/mg
N#C[C@@]12C[C@@H]1[C@@H](n1cnc3c(N[C@@H](C4CCC4)C4CC4)nc(I)nc31)[C@H](O)[C@@H]2O | – | – | male Wistar rat, plasma | oral, 3 mg/kg | AUC(0-inf) | 105 ng·h/mL
O=C1CC[C@H](N2Cc3cc(N4CCN(CC5CCN(c6ccc([C@@H]7c8ccc(O)cc8CC[C@@H]7c7ccccc7)cc6)CC5)CC4)ccc3C2=O)C(=O)N1 | – | – | female Sprague-Dawley rat, plasma | intravenous, 5 mg/kg, fed | MRT(0-inf) | 6.51 h
O=C1CCC(N2Cc3cc(Nc4noc5ccccc45)ccc3C2=O)C(=O)N1 (stereo not drawn) | – | – | female CD-1 mouse, plasma | intravenous, 3 mg/kg | clearance | 59 mL/min/kg
COc1cc(C(=O)NC2CCN(C)CC2)c(F)cc1Nc1ncc(C(F)(F)F)c(Oc2cccc3c2C(=O)N(C)C3)n1 | – | – | human, plasma | oral, 300 mg, single dose, patients | Vd/F | 166 L
O=C(COc1ccc(Cl)cc1)NC12CC(c3nnc([C@H]4C[C@@H](OC(F)(F)F)C4)o3)(C1)C2 | – | – | human, plasma | oral, 45 mg, multiple doses, once daily, healthy volunteers | half-life | 43.6 h
Cc1cc(C)c(OS(=O)(=O)Oc2cccc(C(=O)NO)c2)c(C)c1 | HDAC6 | enzyme activity, inhibitor, fluorescence | – | – | IC50 | 0.557 µM
c1ccc(-c2nc(N3CCCCCC3)c3ccccc3n2)nc1 | – | – | PAMPA | 10 µM, 3 h, pH 7.4 | Papp | 35.7 ×10⁻⁶ cm/s
COc1cc(-c2cncc3c2CN(C)Cc2cc(N4CCNCC4)ccc2-3)cc(OC)c1OC | Serine/threonine-protein kinase Chk2 (CHEK2, Homo sapiens, UniProt O96017, R145W) | enzyme activity, inhibitor | – | 1 µM | remaining activity | 102%
N=C(N)c1ccc(OCc2cccc(COc3ccc(C(=N)N)cc3)c2)cc1 | – | haemolysis | sheep | 200 µg/mL, 1 h | haemolysis | 0.9%
Oc1cccc(-c2nc(N3CCC(c4ccccn4)C3)c3ccccc3n2)c1 (stereo not drawn) | – | metabolic stability | mouse, liver microsomes | – | microsomal CLint | 628 µL/min/mg
N=C(N)c1ccc(OCc2cc(COc3ccc(C(=N)N)cc3)cc(-c3ccccc3)c2)cc1 | – | haemolysis | sheep | 200 µg/mL, 1 h | haemolysis | 32%
CC(=NNC(=O)c1ccncc1)c1ccc(Nc2nnc(-c3ccc(Cl)cc3)c3ccccc23)cc1 | MCF7 | cell growth or viability, MTT | – | 0.625 µM | cell death | 95.5%
COc1ccc(C[C@@H](C)[C@@H](C)Cc2ccc(OC)c(OC)c2)cc1OC | – | – | male beagle dog, plasma | oral, 300 mg/kg/day, multiple doses, once daily | AUC(0-t) | 13800 ng·h/mL
COc1cccc(-c2n[nH]c(SCc3ccccn3)n2)c1OC | – | – | male Sprague-Dawley rat, plasma | intravenous, 1 mg/kg, 8 h, single dose | concentration | 49.8 ng/mL
Cc1[nH]c(C)c(S(=O)(=O)Nc2cc(Cl)c(C(F)(F)F)c(Cl)c2)c1C(=O)N1CCC(F)(F)C1 | D(3) dopamine receptor (DRD3, Homo sapiens, UniProt P35462) | G protein activation, antagonist, BRET | – | – | IC50 | 0.27 µM
N=C(N)c1ccc(OCCS(=O)(=O)CCOc2ccc(C(=N)N)cc2)cc1 | – | haemolysis | sheep | 200 µg/mL, 1 h | haemolysis | 0.2%
CC(=O)Nc1ccc(Oc2nnc(-c3ccc(Cl)cc3)c3ccccc23)cc1 | MCF7 | cell growth or viability, MTT | – | 5 µM | cell death | 96.3%
CNc1ncc2c(/C=C/C(=O)N3CCC(OC)CC3)nn(Cc3cccc(C(F)(F)F)c3)c2n1 | Cyclin-dependent kinase 2, with cyclin D1 (CDK2, Homo sapiens, UniProt P24941) | enzyme activity, inhibitor, radiometric | – | 1 µM | remaining activity | 98%
c1ccc(-c2nc(N3CCCC3)c3ccccc3n2)nc1 | – | metabolic stability | mouse, liver microsomes | – | microsomal CLint | 136 µL/min/mg
C=CC(=O)N1CCC(COCC(=O)N2CCN(c3nc(-c4cnc(N)nc4C(F)F)nc(N4CCOC[C@@H]4C)n3)CC2)CC1 | Inhibitor of nuclear factor kappa-B kinase subunit beta (IKBKB, Homo sapiens, UniProt O14920) | binding, competition with immobilised ligand | – | 1 µM | remaining binding | 100%
CC(C)(C)c1ccc(O)c(CN(Cc2cc(C(C)(C)C)ccc2O)C2CCC(NC(N)=O)CC2)c1 (stereo not drawn) | – | – | male C57BL/6 mouse, brain | intraperitoneal, 25 mg/kg, single dose | tissue/plasma ratio | 0.99
COc1ccc2c(=O)n(C)c(-c3ccccc3)nc2c1 | – | – | male Sprague-Dawley rat, muscle | oral, 30 mg/kg, 2 h, single dose | concentration | 1.64 ng/mL
N#Cc1cccc(-c2nc(N3CCC(c4ccccn4)C3)c3ccccc3n2)c1 (stereo not drawn) | – | metabolic stability | mouse, liver microsomes | – | microsomal CLint | 561 µL/min/mg
CC1(C)CC[C@]2(NC(=O)C(C)(F)F)CC[C@]3(C)[C@H](C(=O)C=C4[C@@]5(C)C=C(C#N)C(=O)C(C)(C)[C@@H]5CC[C@]43C)[C@@H]2C1 | – | – | human, plasma | oral, 150 mg, single dose | Vd/F | 9250 L
